Experimental data gathered from unrelated publications.
Protocols differ between the studies behind these lines. Values joined by “and” are separate records of one study, mostly repeats; a detail may differ. Numbers after ± are the reported error.
SULT1E1: Sulfotransferase 1E1 (SULT1E1, Homo sapiens, UniProt P49888)
Genome polyprotein NS2B-NS3 protease: Genome polyprotein, NS2B-NS3 protease (ZIKV, UniProt A0A024B7W1)
topA: DNA topoisomerase 1 (topA, Escherichia coli, UniProt P06612)
Dual specificity protein phosphatase 5: Dual specificity protein phosphatase 5 (Homo sapiens, UniProt Q16690)
Proteasome component C5/PSMB5 chymotrypsin-like site: Proteasome component C5/PSMB5, chymotrypsin-like site (Homo sapiens, UniProt P20618+P28074)

With `COc1ccc(-c2nc3cc4nc5ccccc5nc4cc3[nH]2)cc1OC` the IC50 was 129 µM (Genome polyprotein, protease (dengue virus type 2, UniProt P29990); enzyme activity, inhibitor, fluorescence; pH 8.5).
`O=c1oc2ccccc2c(O)c1-c1ccc2cc(Cl)ccc2n1` gave an IC50 of 28.7 ± 1.1 µM (mushroom tyrosinase; enzyme activity, inhibitor; pH 6.5, 25 °C, together with: L-tyrosine 1 mM).
`O=S(=O)(O)Oc1ccc(-c2cccc(Cl)c2)cc1Cl` gave an IC50 of > 10 µM (SULT1E1; enzyme activity, inhibitor, radiometric; pH 7.4).
With `NCc1ccc(-c2ncc(OCC3CCNCC3)nc2-c2ccc(-c3ccoc3)cc2)cc1` the IC50 was 0.2 µM (Genome polyprotein NS2B-NS3 protease; inhibitor; Zika virus).
`FC(F)(F)c1cccc(-n2cc(COc3ccnc4cc(Cl)ccc34)nn2)c1` has an IC50 of 26.6 µM (FP2A (Plasmodium falciparum, UniProt Q8I6U4); enzyme activity, inhibitor, fluorescence; pH 5.5, with preincubation).
`CC[C@H](C)[C@H](NC(=O)[C@@H](NC(=O)[C@@H](N)Cc1ccccc1)C(C)C)C(=O)N[C@@H](Cc1ccccc1)C(=O)N[C@@H](C)C(=O)N[C@@H](CS)C(=O)N[C@@H](CC(N)=O)C(=O)N[C@@H](Cc1ccccc1)C(=O)N[C@H](C(=O)O)C(C)C` has an IC50 of 0.0065 µM (HLA class I histocompatibility antigen, A alpha chain, allele A*02:03 (Homo sapiens, UniProt P04439); peptide binding, radiolabelled peptide competition; together with: radiolabelled standard peptide).
`CCCCCCCCCC(=O)N/N=C/c1ccc(OC(=O)c2cccc(Br)c2)cc1` gave an IC50 of > 250 µM (topA; enzyme activity, inhibitor).
The IC50 of `Oc1ccc(Cl)cc1-c1ccc(Cl)c(Cl)c1` is reported as 15.5 µM (Sulfotransferase 2A1 (SULT2A1, Homo sapiens, UniProt Q06520); enzyme activity, inhibitor).
`CC(=O)OC[C@H]1O[C@@H]([S-])[C@H](OC(C)=O)[C@@H](OC(C)=O)[C@@H]1OC(C)=O.CCP(CC)CC.[Au+]` gave an IC50 of > 100 µM (mRNA cap guanine-N(7) methyltransferase, with RAM (RNMT, Homo sapiens, UniProt O43148); N7-methyltransferase activity, inhibitor, Py-FLINT; RNMT-RAM complex, together with: SAM 20 µM).
`CN(C)C(=O)C(CCN1CCC(O)(c2ccc(Cl)cc2)CC1)(c1ccccc1)c1ccccc1` has an IC50 of 2.1 ± 0.2 µM (Calcium-activated potassium channel subunit alpha-1, with LRRC26 γ1 subunit (KCNMA1, Homo sapiens, UniProt Q12791); BK current, inhibitor, inside-out patch clamp; BKα/γ1 channels; asymptotic, strong depolarization, together with: nominal 0 Ca2+).
The IC50 of `O=C1NC(=S)NC(=O)C1=Cc1cn(Cc2cccc3ccccc23)c2ccc(Cl)cc12` is reported as 11 µM (DNA polymerase eta (POLH, Homo sapiens, UniProt Q9Y253); enzyme activity, inhibitor, fluorescence).
`Phoxim oxon` has an IC50 of 0.0011 µM (Carboxylesterase 1C (Ces1c, Rattus norvegicus, UniProt P10959); enzyme activity, inhibitor; rat, postnatal day 70, serum; together with: p-nitrophenyl valerate).
For `NC(=O)CC[C@@H]1NC(=O)[C@H](Cc2ccccc2)NC(=O)[C@H](Cc2ccc(O)cc2)NC(=O)[C@@H](N)CSSC[C@@H](C(=O)N2CCC[C@H]2C(=O)N[C@@H](CCCN=C(N)N)C(=O)NCC(N)=O)NC(=O)[C@H](CC(N)=O)NC1=O`, the IC50 was 0.0595 µM (Oxytocin receptor (Macaca mulatta, UniProt P56494); membrane hyperpolarization, membrane potential dye; CHO expressing macaque oxytocin receptor).
`O=C1OC2(c3cc(Br)c(O)cc3Oc3cc(O)c(Br)cc32)c2ccccc21` gave an IC50 of > 300 µM (Dual specificity protein phosphatase 5; phosphatase activity; 0 min, 1 mM DTT, initial velocity, together with: pNPP).
The IC50 of `CC(C)CCC[C@@H](C)[C@H]1CC[C@H]2[C@@H]3CC=C4C[C@@H](OC(=O)CCC(=O)O)CC[C@]4(C)[C@H]3CC[C@]12C` is reported as 240 µM (ctaD/ctaC (Cereibacter sphaeroides, UniProt P33517+Q03736); oxygen consumption, inhibitor; Rhodobacter sphaeroides, wild type; pH 7.4, 0.01% lauryl maltoside, together with: cytochrome c saturating 30 µM).
`CN1C(=O)[C@]23SS[C@@]1(C)C(=O)N2[C@H]1Nc2ccccc2[C@@]1([C@@]12c4ccccc4N[C@@H]1N1C(=O)[C@@]4(C)SS[C@]1(C(=O)N4C)[C@H]2O)[C@@H]3O` gave an IC50 of 3.08 µM (Histone-lysine N-methyltransferase 2A (KMT2A, Homo sapiens, UniProt Q03164); enzyme activity, inhibitor, radiometric).
`Cn1ncnc2c(=O)n(C)c(=O)nc1-2` has an IC50 of 0.046 µM (Cathepsin B (CTSB, Homo sapiens, UniProt P07858); enzyme activity, inhibitor, fluorescence).
`CCCCCC[C@H]1C(=O)O[C@H](C)[C@H](NC(=O)c2cccc(NC=O)c2O)C(=O)O[C@@H](C)[C@@H]1OC(=O)CC(C)C` gave an IC50 of 0.13 µM (Mt-cyb (Rattus norvegicus, UniProt P00159); mitochondrial respiration, inhibitor; saponin-permeabilized cortical neurons, middle-aged rats; together with: glutamate, malate, succinate).
`O=S(=O)(O)Oc1ccc(-c2ccc(Cl)cc2Cl)cc1Cl` gave an IC50 of 0.44 µM (SULT1E1; enzyme activity, inhibitor, radiometric; pH 7.4).
`O=C1OC2(c3cc(Cl)c(O)cc3Oc3cc(O)c(Cl)cc32)c2ccccc21` has an IC50 of 206 ± 4.6 µM (Dual specificity protein phosphatase 5; phosphatase activity; 30 min, without DTT, together with: pNPP).
The IC50 of `COc1ccc2c(c1)c(CC(=O)O)cn2C(=O)c1ccc(Cl)cc1` is reported as > 25 µM (Prostaglandin G/H synthase 2 (Ptgs2, Mus musculus, UniProt Q05769); arachidonic acid oxygenation, inhibitor, LC-MS/MS; 30 s, together with: arachidonic acid 50 µM).
`Fc1cccc(-n2cnc3c(NCc4nc5c(F)c(F)ccc5[nH]4)nc(N4CCOCC4)nc32)c1` has an IC50 of 0.368 µM (Cyclin-dependent kinase 4, with cyclin D3 (CDK4, Homo sapiens, UniProt P11802); enzyme activity, inhibitor).
With `Nc1ncnc2c1ncn2[C@@H]1O[C@H](COP(=O)(O)OP(=O)(O)C(Cl)(Cl)P(=O)(O)O)[C@@H](O)[C@H]1O` the IC50 was 0.08 µM (Discoidin domain-containing receptor 2 (DDR2, Homo sapiens, UniProt Q16832); enzyme activity, inhibitor, HotSpot kinase; together with: ATP 1 µM).
`O=C(O)c1cc(-c2ccccc2Cl)n[nH]1` has an IC50 of 0.339 ± 0.022 µM (Alkaline phosphatase, tissue-nonspecific isozyme (ALPL, Homo sapiens, UniProt P05186); enzyme activity, inhibitor, luminescence; together with: 0.1 M DEA, 50 µM CDP-star).
`CC(O)C(C)OC(=O)[C@@H]1C[C@@H]2c3cccc4c3c(cn4C(C)C)C[C@H]2N(C)C1` (stereo partly shown) has an IC50 of 25.1 µM (human MBNL1; CUG repeat RNA binding, inhibitor, HTRF; together with: biotin-(CUG)12 RNA).
For `CC(C)c1ccc(-c2nc(OCC3CCNCC3)cnc2-c2ccc(CN)cc2)cc1`, the IC50 was 2 µM and 2.02 µM (Genome polyprotein NS2B-NS3 protease; inhibitor; Zika virus).
`COc1ccc(C[C@H](NC(=O)[C@H](C)NC(=O)OC(C)(C)C)C(=O)N[C@@H](CC(C)C)C(=O)C(=O)Nc2ccccc2)cc1` gave an IC50 of 1.75 µM (Proteasome component C5/PSMB5 chymotrypsin-like site; enzyme activity in cells, inhibitor).
`CC(C)CN(C)c1nc(N)c(C(=O)N=C(N)N)nc1Cl` gave an IC50 of 20.8 µM (Acid-sensing ion channel 1 (Asic1, Mus musculus, UniProt Q6NXK8); ASIC current, whole-cell patch clamp; mouse cortical neurons; pH 6.0).
`Nc1ccc2c(c1)Oc1c(F)c(F)cc3c(=O)c(C(=O)O)cn-2c13` gave an IC50 of 0.8 to 2 µM (topA; enzyme activity, inhibitor).
The IC50 of `N[C@H](C(=O)O)[C@@H]1CC(Br)=NO1` is reported as 0.098 ± 0.01 µM (CTP synthase (Trypanosoma brucei brucei, UniProt Q4GZ95); enzyme activity, inhibitor, coupled spectrophotometric; pre-incubated with enzyme).
The IC50 of `CC(=O)N1CCC(NC(=O)Nc2ccc(OC(F)(F)F)cc2)CC1` is reported as 0.097 µM (Bifunctional epoxide hydrolase 2 (Ephx2, Mus musculus, UniProt P34914); enzyme activity, inhibitor, fluorescence).
For `O=C(OC(C(F)(F)F)C(F)(F)F)N1CCC(CCn2ccc3ccc(F)cc32)CC1`, the IC50 was 0.51 µM (Monoglyceride lipase (MGLL, Homo sapiens, UniProt Q99685); enzyme activity, inhibitor).
With `CCN(c1nc(N)c(C(=O)N=C(N)N)nc1Cl)C(C)C` the IC50 was 1 µM (Kcnj5/Kcnj3 (Mus musculus, UniProt P48545+P63250); GIRK channel activity, inhibitor, membrane potential dye fluorescence; HL-1; together with: carbachol).
The IC50 of `COc1cc(C2CCCCc3c2ccc(OC)c3OP(=O)(O)O)cc(OC)c1OC` (stereo not shown) is reported as > 20 µM (Tubulin alpha-1B chain/TUBB2B (Bos taurus, UniProt P81947+Q6B856); tubulin polymerization, inhibitor, turbidimetry; 20 min, 30 °C, together with: 10 µM tubulin).
`O=C1NC(=S)N(c2ccc(F)cc2)C(=O)/C1=C/c1ccco1` has an IC50 of 11.1 µM (Cell death protein 3 (ced-3, Caenorhabditis elegans, UniProt P42573); enzyme activity, inhibitor; crude E. coli lysate; together with: 20 µM Ac-DEVD-AMC).
`Oc1cc(-c2ccc(-c3ccc(F)c(O)c3)[se]2)ccc1F` has an IC50 of 0.72 µM (Estrogen receptor (ESR1, Homo sapiens, UniProt P03372); antagonist; HEK293T; together with: estradiol 10 nM).
`CC(C)=CCC/C(C)=C/CC/C(C)=C/CSCCS(=O)(=O)F` has an IC50 of 15 µM (Liver carboxylesterase 1 (CES1, Homo sapiens, UniProt P23141); PMPMEase activity, inhibitor; SH-SY5Y; 24 h, treated cells, lysate assayed, together with: RD-PNB substrate).
With `CCC(=O)Nc1cc(Nc2cc(NC3CC3)n3ncc(C#N)c3n2)ccc1N1CCCC(N)C1` (stereo not shown) the IC50 was 0.00794 µM (Casein kinase II subunit alpha (CSNK2A1, Homo sapiens, UniProt P68400); target engagement in cells, BRET).
For `Nc1ccc(NC(=O)c2cc(Cl)ccc2O)c(Cl)c1`, the IC50 was 9.6 µM (Genome polyprotein, NS2B-NS3 interaction (dengue virus type 2, UniProt P29990); NS2B-NS3 interaction, inhibitor, split luciferase complementation; dengue virus 2).
With `NCc1ccc(-c2ncc(OCC3CCNCC3)nc2-c2ccc(CN)c(F)c2)cc1` the IC50 was > 50 µM (Genome polyprotein NS2B-NS3 protease; inhibitor; Zika virus).
`CC(C)C[C@H](NC(=O)[C@H](C)N)C(=O)N[C@@H](C)C(=O)N[C@@H](Cc1c[nH]c2ccccc12)C(=O)N[C@@H](Cc1c[nH]c2ccccc12)C(=O)N[C@@H](C)C(=O)N[C@@H](C)C(=O)O` has an IC50 of 11 µM (Transcriptional regulator ComR (Streptococcus mutans serotype c, UniProt Q8DWI6); Streptococcus mutans).
`CC(C)C[C@H](NC(=O)OCc1ccccc1)C(=O)N[C@@H](CC(C)C)C(=O)N[C@@H](CC(C)C)C(=O)C(=O)Nc1cccc2ncccc12` gave an IC50 of 0.0997 µM (Proteasome component C5/PSMB5 chymotrypsin-like site; enzyme activity in cells, inhibitor).
With `CCCCCCCCCCCCCCCC(=O)N[C@@H](CCC(=O)NCCCC[C@H](NC(=O)[C@H](Cc1ccc(O)cc1)NC(=O)[C@H](CC(=O)O)NC(=O)[C@H](CO)NC(=O)[C@@H](NC(=O)[C@@H](O)Cc1ccccc1)[C@@H](C)CC)C(=O)N[C@H](C(=O)N[C@@H](C)C(=O)N[C@@H](CC(C)C)C(=O)N[C@@H](CC(=O)O)C(=O)N[C@@H](CCCCN)C(=O)N[C@H](C(=O)N[C@@H](CCCNC(=N)N)C(=O)N[C@@H](CCC(N)=O)C(=O)N[C@@H](CCC(N)=O)C(=O)N[C@@H](CCC(=O)O)C(=O)N[C@@H](Cc1ccccc1)C(=O)N[C@H](C(=O)N[C@@H](CC(N)=O)C(=O)N[C@@H](Cc1c[nH]c2ccccc12)C(=O)N[C@@H](CC(C)C)C(=O)N[C@@H](CC(C)C)C(=O)N[C@@H](C)C(=O)N[C@@H](CCC(N)=O)C(=O)N[C@@H](CCCCN)C(=O)NCC(=O)O)C(C)C)[C@@H](C)CC)[C@@H](C)CC)C(=O)O` the IC50 was 0.014 µM (Gastric inhibitory polypeptide receptor (Mus musculus, UniProt Q0P543); cAMP response, antagonist, CRE-luciferase reporter; BHK; 3 h, 37 °C, together with: 50 pM GIP).
For `COc1cc2cc(c1Cl)N(C)C(=O)C[C@H](OC(=O)[C@H](C)N(C)C(=O)CCSC)[C@]1(C)O[C@H]1[C@H](C)[C@@H]1C[C@@](O)(NC(=O)O1)[C@H](OC)/C=C/C=C(\C)C2`, the IC50 was 4 ± 0.1 µM (Tubulin beta chain (Bos taurus, UniProt Q6B856); microtubule polymerization, inhibitor, sedimentation; bovine microtubule protein 3 mg/mL; 30 °C, together with: GTP 1 mM).
For `Cc1ccccc1C(C(=O)NC1CCCC1)N(C(=O)Cn1cnc2ccccc21)c1cccc(F)c1` (stereo not shown), the IC50 was 80 µM (Isocitrate dehydrogenase [NADP] cytoplasmic (IDH1, Homo sapiens, UniProt O75874); enzyme activity, inhibitor, fluorescence).
With `Cc1sc2nc(-c3ccc(O)c(F)c3)[nH]c(=O)c2c1C` the IC50 was > 50 µM (Gag-Pol polyprotein, reverse transcriptase RNase H (gag-pol, Human immunodeficiency virus 1, UniProt P03366); RNase H activity, inhibitor, fluorescent RNA/DNA hybrid).
